Measured values pooled from the literature.
Compare with care: the assays were run in different laboratories.

SMILES = CO[C@H]1C[C@@H]2CC[C@@H](C)[C@@](O)(O2)C(=O)C(=O)N2CCCC[C@H]2C(=O)O[C@H]([C@H](C)C[C@@H]2CC[C@@H](OC(=O)NCCOCCOCCOCCOCCOCCOCCOCCOCCC(=O)N3CCc4cc(Cn5nc(-c6ccc7oc(N)nc7c6)c6c(N)ncnc65)ccc4C3)[C@H](OC)C2)C[C@@H](O)[C@H](C)/C=C(\C)[C@@H](O)[C@@H](OC)C(=O)[C@H](C)C[C@H](C)/C=C/C=C/C=C/1C; test = ultracentrifugation; system = mouse plasma; conditions = 0.5 µM; quantity = unbound fraction; value = 0.001
SMILES = N#C[C@@]1(c2ccc3c(N)ncnn23)O[C@H](CO)[C@@H](O)[C@H]1O; system = dog plasma; conditions = 1-100 µM; quantity = unbound fraction in plasma; value = 0.0768
SMILES = Cc1cc(C)c(CNC(=O)c2cc(Cl)c3c(c2C)O[C@@](C)([C@H]2CC[C@H](N(C)C)CC2)O3)c(=O)[nH]1; test = ultracentrifugation; system = solution, alpha-1 acid glycoprotein, 0.1%; conditions = 600 ng/mL, 160 min; quantity = unbound fraction; value = 0.0772
SMILES = CN1CCN(c2ccc(C(=O)Nc3n[nH]c4ccc(Cc5cc(F)cc(F)c5)cc34)c(NC3CCOCC3)c2)CC1; system = porcine brain polar lipids; conditions = 10 µM, pH 7.4, 0.2% DMSO; quantity = unbound fraction in brain; value = 0.0005
SMILES = CN(C(=O)C(C)(C)c1cc(C(F)(F)F)cc(C(F)(F)F)c1)c1cnc(N2C[C@H]3COCCN3C[C@H]2CO)cc1-c1ccc(F)cc1[14CH3]; system = pooled human liver microsomes; conditions = pH 7.4, substrate depletion; quantity = unbound intrinsic clearance; value = 1490 µL/min/mg
SMILES = CCO[C@H]1CCN(Cc2c(OC)cc(C)c3[nH]ccc23)[C@H](c2ccc(C(=O)O)cc2)C1; system = severe hepatic impairment patients; conditions = oral, 200 mg, mean; quantity = unbound AUC(0-12); value = 9460 ng·h/mL
SMILES = COCCOc1cnc2ccn([C@H](C)c3nnc4c(F)cc(-c5cnn(C)c5)cn34)c(=O)c2c1; system = cancer patients, plasma; conditions = oral, 200 mg once daily, day 1; quantity = unbound Ctrough; value = 312 ng/mL
SMILES = O=C1CC[C@H](N2Cc3cc(N4CCN(CC5CCN(c6ccc([C@@H]7c8ccc(O)cc8CC[C@@H]7c7ccccc7)cc6)CC5)CC4)ccc3C2=O)C(=O)N1; test = rapid equilibrium dialysis; system = SD rat plasma; conditions = 2.5 µM, 6 h; quantity = unbound fraction in plasma; value = 0.046
SMILES = C[C@@H](Oc1cc(-c2cnn(C3CCNCC3)c2)cnc1N)c1c(Cl)ccc(F)c1Cl; system = porcine brain polar lipids; conditions = 10 µM, pH 7.4, 0.2% DMSO; quantity = unbound fraction in brain; value = 0.0024

Some of these lines once more:
SMILES = Cc1cc(C)c(CNC(=O)c2cc(Cl)c3c(c2C)O[C@@](C)([C@H]2CC[C@H](N(C)C)CC2)O3)c(=O)[nH]1; test = ultracentrifugation; system = solution, alpha-1 acid glycoprotein, 0.1%; conditions = 600 ng/mL, 160 min; quantity = unbound fraction; value = 0.0772
